Experimental data of several laboratories.
± gives the spread as reported.

| Structure (SMILES) | test | system | setting | measurement | value |
| --- | --- | --- | --- | --- | --- |
| O=P(O)(O)c1ccc(O)c(CO)c1 |  | mice | oral, 25 mg/kg | plasma detection | not detected |
| COc1ccc(C)cc1NC(=O)OC1CC2CCCC(C1)N2Cc1ccc(CC[18F])cc1 (stereo not shown) |  | BALB/c mice, EMT6 tumour, muscle | 30 min | tissue uptake | 2.9 ± 0.68 %ID/g |
| CCCCCCCC(=O)OC[C@H](NC(=O)[C@H](CO)NC(=O)CN)C(=O)N[C@@H](Cc1ccccc1)C(=O)N[C@@H](CC(C)C)C(=O)N[C@@H](CO)C(=O)N1CCC[C@H]1C(=O)N[C@@H](CCC(=O)O)C(=O)N[C@@H](Cc1cnc[nH]1)C(=O)N[C@@H](CCC(N)=O)C(=O)N[C@@H](CCCNC(=N)N)C(=O)N[C@H](C(=O)N[C@@H](CCC(N)=O)C(=O)N[C@@H](CCC(N)=O)C(=O)N[C@@H](CCCNC(=N)N)C(=O)N[C@@H](CCCCN)C(=O)N[C@@H](CCC(=O)O)C(=O)N[C@@H](CO)C(=O)N[C@@H](CCCCN)C(=O)N[C@@H](CCCCN)C(=O)N1CCC[C@H]1C(=O)N1CCC[C@H]1C(=O)N[C@@H](C)C(=O)N[C@@H](CCCCN)C(=O)N[C@@H](CC(C)C)C(=O)N[C@@H](CCC(N)=O)C(=O)N1CCC[C@H]1C(=O)N[C@@H](CCCNC(=N)N)C(=O)O)C(C)C |  | human, plasma | intravenous infusion, 1 µg/kg/h, 65 min infusion | dose-normalised Cmax | 3.87 ± 3.46 |
| CSCC[C@H](NC(=O)CNC(=O)[C@H](CC(=O)O)NC(=O)[C@@H](NC(=O)[C@@H](NC(=O)[C@@H](NC(=O)CNC(=O)[C@H](CCC(=O)O)NC(=O)[C@H](CCSC)NC(=O)[C@H](CC(=O)O)NC(=O)[C@H](C)NC(=O)[C@H](C)NC(=O)[C@@H](NC(=O)[C@H](CO)NC(=O)[C@@H](N)CC(C)C)[C@@H](C)O)C(C)C)C(C)C)[C@@H](C)O)C(=O)N[C@@H](C)C(=O)N[C@@H](CO)C(=O)NCC(=O)N[C@@H](CC(C)C)C(=O)N[C@@H](CC(=O)O)C(=O)N[C@@H](CCCCN)C(=O)N[C@@H](CC(=O)O)C(=O)N[C@@H](Cc1ccc(O)cc1)C(=O)N[C@@H](CC(C)C)C(=O)N[C@@H](CCCCN)C(=O)N1CCC[C@H]1C(=O)N[C@@H](CC(=O)O)C(=O)N[C@@H](CC(=O)O)C(=O)O |  | mice | intravenous, dose not given | Vss | 4.1 L/kg |
| COC(=O)C[C@](O)(CCCC(C)(C)OC(C)=O)C(=O)O[C@@H]1C(OC)=C[C@]23CCCN2CCc2cc4c(cc2[C@H]13)OCO4 |  | CD1 mouse, esophagus | subcutaneous, 1 mg/kg, 24 h | concentration | not detected |
| CC[C@@H]1C[C@]1(NC(=O)[C@@H]1C[C@@]2(CN1C(=O)[C@@H](NC(=O)[C@@H](NC(=O)[C@@H]1CCCCN1C(C)C)C1CCCCC1)C(C)(C)C)C(C)(C)C21CCC1)C(=O)NS(=O)(=O)N1CCCC1 | refers to: Nausea | healthy human | oral, 50 mg, added: ritonavir 100 mg | subjects with adverse event | 0% |
| C[C@@H]1CC[C@H]2[C@@H](C)CO[C@@H]3O[C@@]4(C)CC[C@@H]1[C@]32OO4 | refers to: compound | rat, plasma | 50.0 ng/mL spiked, three freeze/thaw cycles | measured concentration | 56.1 ± 2.05 ng/mL |
| CC(C)C[C@H](NC(=O)[C@H](CCCCN)NC(=O)[C@H](CCC(=O)O)NC(=O)[C@H](C)NC(=O)[C@@H](NC(=O)[C@H](CCCCN)NC(=O)[C@H](CC(=O)O)NC(=O)[C@H](Cc1ccc(O)cc1)NC(=O)[C@H](Cc1ccccc1)NC(=O)[C@H](C)NC(=O)[C@H](CCCCN)NC(=O)[C@H](CC(C)C)NC(=O)[C@H](Cc1c[nH]c2ccccc12)NC(=O)[C@@H](N)CC(=O)O)C(C)C)C(=O)N[C@@H](CCCCN)C(=O)N[C@@H](CCC(=O)O)C(=O)N[C@@H](C)C(=O)N[C@@H](Cc1ccccc1)C(=O)N1CCC[C@H]1C(=O)N[C@@H](CC(=O)O)C(=O)N[C@@H](Cc1c[nH]c2ccccc12)C(=O)N[C@@H](C)C(=O)N[C@@H](CCCCN)C(=O)N[C@@H](C)C(=O)N[C@@H](C)C(=O)N[C@@H](Cc1ccc(O)cc1)C(=O)N[C@@H](CC(=O)O)C(=O)N[C@@H](CCCCN)C(=O)N[C@@H](C)C(=O)N[C@@H](C)C(=O)N[C@@H](CCC(=O)O)C(=O)N[C@@H](CCCCN)C(=O)N[C@@H](C)C(=O)N[C@@H](CCCCN)C(=O)N[C@@H](CCC(=O)O)C(=O)N[C@@H](C)C(=O)N[C@@H](C)C(=O)O |  | cynomolgus monkey female, plasma | intravenous infusion, 25 mg/kg every other day, day 27 | AUC(0-inf) | 3790 µg·h/mL |
| CSCC[C@@H]1NC(=O)[C@@H]2CSSC[C@H](NC(=O)[C@H](CO)NC(=O)[C@H](C)N)C(=O)N[C@@H](CCCNC(=N)N)C(=O)N[C@@H]([C@@H](C)O)C(=O)N3CCC[C@H]3C(=O)N[C@@H](CCCCN)C(=O)N[C@@H](CC(=O)O)C(=O)N[C@H]3CSSC[C@H](NC(=O)[C@H](CCCCN)NC(=O)[C@H](CCCNC(=N)N)NC(=O)[C@H](CC(N)=O)NC1=O)C(=O)N[C@@H](CCCCN)C(=O)N[C@H]1CSSC[C@H](NC(=O)[C@@H]4CCCN4C(=O)[C@H](CC(=O)O)NC(=O)[C@H](C)NC3=O)C(=O)N[C@@H](C)C(=O)N[C@@H](CCCCN)C(=O)N[C@@H](CCC(=O)O)C(=O)N[C@@H]([C@@H](C)O)C(=O)NCC(=O)N[C@@H](CSSC[C@@H](C(N)=O)NC(=O)[C@H](CCCNC(=N)N)NC(=O)[C@H](CC(N)=O)NC1=O)C(=O)N1CCC[C@H]1C(=O)N[C@@H](Cc1ccc(O)cc1)C(=O)NCC(=O)N[C@@H](CCCCN)C(=O)N2 |  | DA rat pristane-induced arthritis, serum | subcutaneous, 0.1 mg/kg every other day, 21 days | Sodium | 130 mmol/L |
| CCC[C@@H]1O[C@@H]2C[C@H]3[C@@H]4C[C@H](F)C5=CC(=O)CC[C@]5(C)[C@@]4(F)[C@@H](O)C[C@]3(C)[C@]2(C(=O)CO)O1 |  | CD1 mice, plasma | subcutaneous, 0.2 mg/kg | half-life | 20.4 min |
